Measured values of several laboratories.
Every numbered part comes from another study and shows a few of its results, in no order.

Sample 1
Target: Interferon regulatory factor 7, full length, phosphomimetic (IRF7, Homo sapiens, UniProt Q92985, residues 1-503, S471D/S472D/S475D/S476D/S477D/S483D/S484D/S487D)
Sequence of UniProt Q92985 (whole entry, unmodified, looked up): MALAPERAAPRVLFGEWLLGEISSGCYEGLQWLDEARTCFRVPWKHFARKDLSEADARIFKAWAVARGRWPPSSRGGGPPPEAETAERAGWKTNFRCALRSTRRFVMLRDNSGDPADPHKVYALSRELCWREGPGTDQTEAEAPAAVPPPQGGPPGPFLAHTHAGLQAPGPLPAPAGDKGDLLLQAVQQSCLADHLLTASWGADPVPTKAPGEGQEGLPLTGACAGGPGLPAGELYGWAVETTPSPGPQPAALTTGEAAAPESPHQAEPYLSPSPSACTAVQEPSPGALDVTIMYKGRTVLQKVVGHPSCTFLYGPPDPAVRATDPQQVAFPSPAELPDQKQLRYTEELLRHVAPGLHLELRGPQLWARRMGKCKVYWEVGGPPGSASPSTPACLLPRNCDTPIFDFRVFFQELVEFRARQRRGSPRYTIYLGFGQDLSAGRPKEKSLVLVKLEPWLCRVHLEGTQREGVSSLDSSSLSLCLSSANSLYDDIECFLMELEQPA
Technique: protein-binding microarray
Form: double-stranded DNA, one strand shown
Medium: in vitro
Concentration: 2200 nM top
Setting: 60-bp whole probe
Together with: salmon DNA 0.4 mg/ml
Relative to: random background probes
Direction: higher = stronger binding
Shared flanks, not repeated: GCCTAGCAC … GTCTTGATTCGCTTGACGCTGCTG
Oligonucleotide | fitted relative affinity [z-score]
ATCTTTTTCCTAATTGAACCGTGCTAG | 1.67
TTAGGTAACCTTCTCCTTTAGTGCTAG | 0.614
TTTCGTTACTTCCTCAAACAGTGCTAG | 9.33
TCAGTTCCCTATATAAGACTGTGCTAG | 1.89
TCAGGTATCCTTTTCCTTTAGTGCTAG | 2.47
TTAGGTATCCTCTTCCTTTAGTGCTAG | 1.43
TTAGGTTTCGGTTTCGGTGAGTGCTAG | 14.5
TTAGGTTTCGGCACTGGGTTAGTGCTA | 1.81
TTAGATTTGGGGTATCGATTAGTGCTA | 0.398
GTAGATCTCAGTTTCGATTAGTGCTAG | 5.33
GACGGTATCGGTCTCGGTACGTGCTAG | 0.305
TTACATCTCAGTATCGATTAGTGCTAG | 1.33
TTAGGACTGAGTATCGATTAGTGCTAG | -0.162
TTAGATCTCGGTCTCGATTAGTGCTAG | 0.55
GACGGACTGGGGTTTCGCGACGTGCTA | -0.239
GAGGGACTGGGGTATCGGGACGTGCTA | -0.918

Sample 2
Target: RING finger protein unkempt homolog, zinc fingers 1-6, SBP tag (UNK, Homo sapiens, UniProt Q9C0B0, residues 30-357)
Sequence of UniProt Q9C0B0 (30-357, looked up): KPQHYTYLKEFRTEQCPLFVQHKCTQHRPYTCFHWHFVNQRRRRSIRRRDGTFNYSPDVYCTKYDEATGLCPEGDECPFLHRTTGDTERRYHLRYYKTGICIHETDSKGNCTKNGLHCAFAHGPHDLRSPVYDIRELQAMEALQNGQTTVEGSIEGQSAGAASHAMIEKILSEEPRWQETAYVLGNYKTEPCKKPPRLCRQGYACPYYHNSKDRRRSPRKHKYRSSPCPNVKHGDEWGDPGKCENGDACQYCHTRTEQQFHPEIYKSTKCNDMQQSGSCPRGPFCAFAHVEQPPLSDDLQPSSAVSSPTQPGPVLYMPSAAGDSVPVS
Technique: RNA Bind-n-Seq
Form: RNA
Medium: in vitro
Concentration: 100 nM
Setting: RNA with constant flanks, vertebrate orthologous sites, ends assumed
Relative to: input RNA pool
Direction: higher = stronger binding
Shared flanks, not repeated: GGGAGUUCUACAGUCCGACGAUC … CAACAGAGGAUUGAGCAUCA
Oligonucleotide | bound/input enrichment [ratio]
GUUGUGAUCCAUUUAAUAUACACAAAAAACUAGCUAAGAAAAAUUUGCAUGUAAUCGACUUAGAUGAUGCCACUUUCCUGAGUGCAAAAUUUGGAAGACAGCUUGUACCUGGUUGGAAGC | 0.812
UUUUCACAAUCUACUCAAGUAGGUUUACAUACCACAUUAAGCCUUCAUUUGACAUAUUUACAGCUUUUCUGUUUUCCAGAUGAGAUAAAAGAAUUUAAUGCUUAAAAUUAAAUACGGUCU | 0.295
GGAAAGCUACAGACCAGACUCUGAAAGCAGGAGCACGGGAUCCUGGUUGUCAUCAUCUUUGAGGAACAGAUGUACACCUCUCUUCUCCAGAAGAAGGAGAGAAGGAAGAGACGAGUCUGC | 0.461
CAUUUUCUUAUUUUAGGUAUCAUUGCCCAAUGCCCAAGAUCUUUUAUGUUCAGCUGACUGUAGGAAAUAAUGAAUUUUUUGGAGAAGGAAAGACUCGGCAGGCUGCUAGACACAACGCUG | 1.34
GUUGUGAUCCCUUUAACAUACACAGGAAACUAUCAAAGAAAAACUUGCGAGCAAUUGACUUAGAUGAUGCAGCUUUUCUGAGUGCCAAGUUUGGAAGACAGUUUGUUCCUGGUUGGAAGC | 0.821
ACAGUCCUCUUCUUAAACUGGUAUUUUCACACAAUAGGAAACUAUUAUUGUUUUUCACAGUCUAGUAUCUGGGUUUUACACGGAAGACUAAACUCAUGCUUACAGCUAAACGUGGUCUUU | 0.389
UCAGUCUCUUCCUGUCCUGAGUUUUAUUAAGAAAUCCUUUUUUCUUUUUCUUCUUUUAGGGGAUAUAUAGUAAUAUUAGUGUAAAGAUUUUAAUUUGGGCAACUUUGACUCUUAAGAGAA | 1.09
UGCUGUUAAUGCACUGUAUCCCAGGCAUCGUCUGACCUUAGUGUAAUCUAGGAGAUUUUAUAGUUUUAUUUUAAUGAAGUCUGGAUUGAGGCAAAGCUGGUAGGAGUACGUAGUCUUUUA | 4.11

Sample 3
Target: Sal-like protein 4, full length isoform A (SALL4, Homo sapiens, UniProt Q9UJQ4, residues 1-1053)
Sequence of UniProt Q9UJQ4 (whole entry, looked up): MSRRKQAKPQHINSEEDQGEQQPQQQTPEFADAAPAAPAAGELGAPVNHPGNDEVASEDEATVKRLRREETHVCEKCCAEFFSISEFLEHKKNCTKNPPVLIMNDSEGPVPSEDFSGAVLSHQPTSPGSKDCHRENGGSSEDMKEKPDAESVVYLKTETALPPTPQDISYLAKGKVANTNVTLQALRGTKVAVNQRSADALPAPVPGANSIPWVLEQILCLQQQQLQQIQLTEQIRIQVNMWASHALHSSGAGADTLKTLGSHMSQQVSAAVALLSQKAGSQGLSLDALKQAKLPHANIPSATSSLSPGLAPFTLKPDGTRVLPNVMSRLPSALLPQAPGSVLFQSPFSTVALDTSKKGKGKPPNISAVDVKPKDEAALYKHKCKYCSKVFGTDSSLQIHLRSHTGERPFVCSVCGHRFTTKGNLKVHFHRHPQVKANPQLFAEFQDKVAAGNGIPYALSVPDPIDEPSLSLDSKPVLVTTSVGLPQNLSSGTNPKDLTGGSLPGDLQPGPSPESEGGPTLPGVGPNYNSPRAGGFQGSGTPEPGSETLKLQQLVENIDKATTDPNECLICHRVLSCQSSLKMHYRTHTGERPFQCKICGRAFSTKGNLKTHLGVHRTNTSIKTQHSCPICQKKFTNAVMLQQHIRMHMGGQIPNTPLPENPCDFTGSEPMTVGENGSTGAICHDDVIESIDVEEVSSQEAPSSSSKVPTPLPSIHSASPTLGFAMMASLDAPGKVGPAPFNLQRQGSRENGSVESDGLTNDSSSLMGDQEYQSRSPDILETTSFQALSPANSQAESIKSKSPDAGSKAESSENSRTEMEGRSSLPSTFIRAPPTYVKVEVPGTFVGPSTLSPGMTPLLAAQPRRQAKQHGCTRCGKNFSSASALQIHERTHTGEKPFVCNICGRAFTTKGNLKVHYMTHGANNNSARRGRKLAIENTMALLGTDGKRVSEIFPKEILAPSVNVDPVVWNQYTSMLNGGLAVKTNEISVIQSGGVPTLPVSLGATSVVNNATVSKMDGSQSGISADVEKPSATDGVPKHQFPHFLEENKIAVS
Technique: universal PBM
Form: double-stranded DNA, one strand shown
Medium: in vitro
Concentration: 600 nM
Setting: 8-mer, flanks averaged, mean of replicates
Direction: higher = stronger binding
Oligonucleotide | E-score
ATGAAGTG | 0.182
TATTTGAA | 0.354
ACGCGGAA | -0.0443
CTTAGACA | -0.0534
ACCCTTGC | -0.212
CTGTCGAC | -0.108
AGCACCCC | -0.26
GCAGTAAA | 0.106
AGTAAACC | -0.0343
ACGTCCGC | -0.198
GAGGTAAA | 0.0956
TCCACAAA | 0.178
ATAATCTG | 0.249
ACCCGGTC | -0.413
TCGAGAAA | 0.0665
GTGAGTAA | -0.0195
ACGTCAAA | 0.162
TCTTTGAA | 0.15
CTAAATGC | 0.0312
AGACAAAA | 0.0659
GAAATACC | 0.0493

Sample 4
Target: RNA binding protein fox-1 homolog 2, RRM domain, GST-SBP tag (RBFOX2, Homo sapiens, UniProt O43251-10, residues 100-194)
Technique: RNA Bind-n-Seq
Form: RNA
Medium: in vitro
Concentration: 365 nM
Setting: natural RNA segment, single round, ends assumed
Relative to: no-protein control
Direction: higher = stronger binding
Shared flanks, not repeated: GGGAGUUCUACAGUCCGACGAUC … UGGAAUUCUCGGGUGCCAA
Residues (chain): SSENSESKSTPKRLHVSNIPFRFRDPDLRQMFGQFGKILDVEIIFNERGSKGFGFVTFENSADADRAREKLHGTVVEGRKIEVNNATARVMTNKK
Oligonucleotide | RBNS enrichment (R)
CCUGCUGGCAGCCUGCAUAGGCCUAGGGCCUCCAUUCUGCCGUAUAUUGAAGAUUUAAAGACAGUGGCACACACACUUGAACAAAAGCAAGCCCUCAGUGUUUCCAGCCA | 0.254
AGAGUUUUACCAAGAUGAAAAGGGUUGAAACACCUGUGAGUGCCUUACAUGGGAAGAACUGCUCUAACCCACUGUGCUAAUGUUCAGAAGCAGAGCCCUCAGUGAGAGCU | 0.327
CUGGAAAUAGUUCAUCAAGUAUGUUUGUUGCUCAUUGUGAUACAUUAAAAACUGUAUCUACAUAUUUACUAUGUGUUUUCUUUCUGAGUUGACUUUGCAAUAUUUGCACA | 0.566
AGUGUCCACACCUGCAUGUAGGGAUUCGGUGUCCUGCUUAAUGCCUUCCCCUCUCGGGCUUCAUUCCACCCAGCUGUCAGCUGACCUGCGGGUGAAGGGCUCAGCCUUCU | 9.41
ACUAAGUAAACCAGGCUAGUUUCAAACACAGAUCUGCCUGCCUCUGCCUGCCAAUGCUCCAACUGAAGAGGCGACCUCUCACCCUGUGGCUCCGCCGUUAAGAGUGACCA | 0.485
GGAAAGUGUUCCAGACGGAGACUCUGAGUUAAUAGAGGAGUAGAAGCUGGUGUUAAAGUUCCCACGACGCACAUGGCUUUGCCAGAAACUCUGUUUAAUGAUCGGCCUUU | 0.266
UAGUGUAAGAGCUGCCCGGCUCCCUGGAGUAAAGCGCUACACGCAAGUUCCCAUAAAGCAAACAGGGCUUCUACUUUGUCUGCUCGGUGACAGACAACCAAGUUUUCCUC | 0.215
UGUGCCCCACUCAUCUGGGGACAGAUGGUUUUUCUUUAUUGUAAAAUUGUGGACUUUUAAAACCUGUUGACUAAACAGUAAUUAAUUUAUAUUUGUGAAAAAUGCCACUG | 0.433

Some of these lines once more (sample 2):
Oligonucleotide | bound/input enrichment [ratio]
GUUGUGAUCCAUUUAAUAUACACAAAAAACUAGCUAAGAAAAAUUUGCAUGUAAUCGACUUAGAUGAUGCCACUUUCCUGAGUGCAAAAUUUGGAAGACAGCUUGUACCUGGUUGGAAGC | 0.812
UUUUCACAAUCUACUCAAGUAGGUUUACAUACCACAUUAAGCCUUCAUUUGACAUAUUUACAGCUUUUCUGUUUUCCAGAUGAGAUAAAAGAAUUUAAUGCUUAAAAUUAAAUACGGUCU | 0.295
GGAAAGCUACAGACCAGACUCUGAAAGCAGGAGCACGGGAUCCUGGUUGUCAUCAUCUUUGAGGAACAGAUGUACACCUCUCUUCUCCAGAAGAAGGAGAGAAGGAAGAGACGAGUCUGC | 0.461
CAUUUUCUUAUUUUAGGUAUCAUUGCCCAAUGCCCAAGAUCUUUUAUGUUCAGCUGACUGUAGGAAAUAAUGAAUUUUUUGGAGAAGGAAAGACUCGGCAGGCUGCUAGACACAACGCUG | 1.34
GUUGUGAUCCCUUUAACAUACACAGGAAACUAUCAAAGAAAAACUUGCGAGCAAUUGACUUAGAUGAUGCAGCUUUUCUGAGUGCCAAGUUUGGAAGACAGUUUGUUCCUGGUUGGAAGC | 0.821
ACAGUCCUCUUCUUAAACUGGUAUUUUCACACAAUAGGAAACUAUUAUUGUUUUUCACAGUCUAGUAUCUGGGUUUUACACGGAAGACUAAACUCAUGCUUACAGCUAAACGUGGUCUUU | 0.389
UCAGUCUCUUCCUGUCCUGAGUUUUAUUAAGAAAUCCUUUUUUCUUUUUCUUCUUUUAGGGGAUAUAUAGUAAUAUUAGUGUAAAGAUUUUAAUUUGGGCAACUUUGACUCUUAAGAGAA | 1.09
UGCUGUUAAUGCACUGUAUCCCAGGCAUCGUCUGACCUUAGUGUAAUCUAGGAGAUUUUAUAGUUUUAUUUUAAUGAAGUCUGGAUUGAGGCAAAGCUGGUAGGAGUACGUAGUCUUUUA | 4.11
